Results collected from several papers.
Every numbered part comes from another study and shows a few of its results, in no order.

Set 1
Target: Sal-like protein 4, full length isoform B (SALL4, Homo sapiens, UniProt Q9UJQ4-2, residues 1-616)
Method: universal PBM
Molecule type: double-stranded DNA, one strand shown
Matrix: in vitro
Tested at: not given
Notes: 8-mer, flanks averaged, mean of replicates
Direction: higher = stronger binding
Residues (chain): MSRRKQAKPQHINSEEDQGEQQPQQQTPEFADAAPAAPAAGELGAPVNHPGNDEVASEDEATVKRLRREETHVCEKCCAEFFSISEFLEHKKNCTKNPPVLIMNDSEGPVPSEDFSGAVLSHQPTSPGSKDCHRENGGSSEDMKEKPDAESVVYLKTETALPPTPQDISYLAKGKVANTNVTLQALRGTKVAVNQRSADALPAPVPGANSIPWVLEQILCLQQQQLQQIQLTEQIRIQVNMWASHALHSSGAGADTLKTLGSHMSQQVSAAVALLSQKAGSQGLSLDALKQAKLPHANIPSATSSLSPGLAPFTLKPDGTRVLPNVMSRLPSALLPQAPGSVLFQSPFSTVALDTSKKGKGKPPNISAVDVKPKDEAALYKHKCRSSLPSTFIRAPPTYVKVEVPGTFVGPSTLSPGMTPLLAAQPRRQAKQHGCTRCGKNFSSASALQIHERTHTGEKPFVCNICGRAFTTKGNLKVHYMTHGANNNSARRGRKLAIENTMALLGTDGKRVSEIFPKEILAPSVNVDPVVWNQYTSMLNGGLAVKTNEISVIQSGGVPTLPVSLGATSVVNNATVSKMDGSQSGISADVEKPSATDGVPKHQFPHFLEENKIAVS
| Strand | E-score |
| --- | --- |
| CATGCACA | 0.0932 |
| GAGATCTC | -0.0653 |
| GCCATGGC | -0.215 |
| GAAACGAC | -0.0838 |
| AACAAGTT | 0.101 |

Set 2
Target: Interferon regulatory factor 5, full length, phosphomimetic (IRF5, Homo sapiens, UniProt Q13568-2, residues 1-514, K96S/S451D/S453D/S456D/S462D)
Method: protein-binding microarray
Molecule type: double-stranded DNA, one strand shown
Matrix: in vitro
Tested at: 250 nM
Notes: 60-bp whole probe
With: salmon DNA 0.4 mg/ml
Relative to: random background probes
Direction: higher = stronger binding
Shared flanks, not repeated: GCCTAGCAC … GTCTTGATTCGCTTGACGCTGCTG
| Strand | log fluorescence |
| --- | --- |
| GACAATCTCAGTTTCGAGACGTGCTAG | 5.56 z-score |
| TTGGATATCAGACTGGATTAGTGCTAG | -0.0965 z-score |
| CACGGTTTCCTTCTCCTGACGTGCTAG | 0.692 z-score |
| TCACTTTTCTTTTCTTTACTGTGCTAG | 2.31 z-score |
| GACGGTATCGACTTGCGGGACGTGCTA | 2.18 z-score |
| GTTTTTCTCCTATTTAAGACGTGCTAG | 1.76 z-score |
| TTAGTTTTCCTTTTCCTTTAGTGCTAG | 2.86 z-score |
| TCATTTCTCCTATTTAAACTGTGCTAG | 1.71 z-score |

Set 3
Target: Centromere-binding protein 1, full length, His-tagged (CBF1, Saccharomyces cerevisiae, UniProt P17106, residues 1-351)
UniProt P17106, sequence (whole entry, looked up): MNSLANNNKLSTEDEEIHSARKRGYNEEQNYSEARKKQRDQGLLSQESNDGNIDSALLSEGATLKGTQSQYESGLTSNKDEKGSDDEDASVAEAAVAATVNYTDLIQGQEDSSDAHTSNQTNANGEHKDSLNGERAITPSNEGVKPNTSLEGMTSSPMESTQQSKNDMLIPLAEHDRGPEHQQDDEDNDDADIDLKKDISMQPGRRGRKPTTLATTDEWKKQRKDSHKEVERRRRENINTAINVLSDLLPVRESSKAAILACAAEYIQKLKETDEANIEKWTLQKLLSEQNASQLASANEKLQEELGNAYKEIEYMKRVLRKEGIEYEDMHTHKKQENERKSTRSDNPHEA
Method: competition protein-binding microarray
Molecule type: double-stranded DNA, one strand shown
Matrix: in vitro
Tested at: 2 µM
Notes: whole 60-bp probe, lowest competitor level
With: Pho4 competitor, 0.05 µM
Direction: higher = stronger binding
Shared flanks, not repeated: … GTCTTGATTCGCTTGACGCTGCTG
| Strand | fluorescence intensity [a.u.] |
| --- | --- |
| CGTCCTAGTGATTGTCACAGGACTTCCATGAGGAAG | 113 |
| CTTCTGTAAATTTGTGCGGTGGGTGGACGCGCCCCG | 84.9 |
| AATGGAACAGATTAGCACGTGAACGAGAAAGCAACC | 1910 |
| CTTCTGTAAATTTGTCACCGCACTTGACGCGCCCCG | 78.4 |
| CCAAACATTGTTCACCACGATGTTGTTCCAATGTTG | 83.4 |
| CTTTCCCGATCTTAGCACGTGTTTTTAGCACATTTG | 2180 |
| TTCAACAGGATCATTAATGTGACGGTCGATCGAAGC | 63.5 |
| CTTCTGTAAATTTGATACGTGGGTGGACGCGCCCCG | 76.3 |
| TATCTTGTCATCCACCATGTGTCTTAGTCGTTGATA | 89.4 |

Mixed results
| Molecule | target | test | system | setting | how to read | quantity | result |
| --- | --- | --- | --- | --- | --- | --- | --- |
| PhoQ, residues 284 288 289 292 302 303 SLCLSL | PhoP, residues 12 14 15 18 19 NQFFI (Escherichia coli, UniProt P23836) | Sort-seq, refers to: YFP reporter | E. coli | PhoQ-PhoP variant library, with: 10 µM Mg2+ | relative to: high Mg2+ state, higher = stronger signaling | fold induction | 8.55 |

For quick reference, copied from above (set 1):
| Strand | E-score |
| --- | --- |
| AACAAGTT | 0.101 |
| GAGATCTC | -0.0653 |
